Results gathered from unrelated publications.
Compare with care: the assays were run in different laboratories. ± gives the spread as reported.

With `CC(C)[C@@H]1CC[C@@H](C)C[C@@H]1O` the triglycerides was 91.4 ± 4.85 mg/dL (acute oral toxicity OECD; Swiss albino mice, serum; oral, 300 mg/kg).
Under “grade 1 or 2 Thrombocytopenia”, `COc1cc2c(Oc3ccc4[nH]c(C)cc4c3F)ccnc2cc1OCC1(N)CC1` is recorded as 50% (paediatric recurrent refractory sarcoma; 10 mg).
With `C[C@@H]1NC(=O)[C@H](CCCCNC(=O)CO/N=C/C(=O)NCCCC[C@@H]2NC(=O)[C@@H](Cc3ccccc3)NC(=O)[C@H](CC(=O)O)NC(=O)CNC(=O)[C@H](CCCNC(=N)N)NC2=O)NC(=O)CNC(=O)[C@@H]2CCCN2C(=O)[C@H](CCCCNC(=O)CO/N=C/C(=O)NCCCC[C@@H]2NC(=O)[C@@H](Cc3ccccc3)NC(=O)[C@H](CC(=O)O)NC(=O)CNC(=O)[C@H](CCCNC(=N)N)NC2=O)NC(=O)[C@H](CCCCNC(=O)CCNC(=O)CCNC(=O)CCNC(=O)[C@H](CCCCN)NC(=O)[C@H](Cc2ccccc2)NC(=O)CNC(=O)CN2CCCNCCNCCCNCC2)NC(=O)[C@H](CCCCNC(=O)CO/N=C/C(=O)NCCCC[C@@H]2NC(=O)[C@@H](Cc3ccccc3)NC(=O)[C@H](CC(=O)O)NC(=O)CNC(=O)[C@H](CCCNC(=N)N)NC2=O)NC(=O)CNC(=O)[C@@H]2CCCN2C(=O)[C@H](CCCCNC(=O)CO/N=C/C(=O)NCCCC[C@@H]2NC(=O)[C@@H](Cc3ccccc3)NC(=O)[C@H](CC(=O)O)NC(=O)CNC(=O)[C@H](CCCNC(=N)N)NC2=O)NC1=O` [copper-64 labelled] the tissue uptake was 4.22 ± 1.52 %ID/g (PET imaging; mouse, U-87 MG tumour xenograft, kidney; intravenous, 24 h).
With `CCc1ccc(CC/C=C/c2ccc3c(c2)C(=O)CC3)cc1` the Calcium was 2.39 mM (Sprague-Dawley rat, female; oral, 30 mg/kg/day, 14 days).
`O=C1Nc2cc3[nH]nc(-c4ccncc4)c3cc2CN1Cc1ccccc1` — result for “patients with retinal detachment”: 11% (CTCAE v4.03; human, relapsed or refractory advanced solid tumours; intravenous, 6.4 mg/kg).
For `CC(C)(C)c1cc(-n2nc3ccccc3n2)c(O)c(C(C)(C)C)c1`, “daily dermal uptake, percentile” read 4.33 ng/kg body weight/day (exposure assessment; human, age 16-21 years; concentration not given, cream, 95th percentile).
Under “AUC at NOAEL”, `C[C@H]1CN(C(=O)CC#N)[C@]12CCN(c1ncnc3[nH]ccc13)C2` is recorded as 21 ng·h/mL (minipig, female; dermal, 12 mg/kg repeated, 1 months).
For `CN1CC[C@@H](c2c(O)cc(O)c3c(=O)cc(-c4ccc(C(F)(F)F)cc4Cl)oc23)[C@@H]1CO`, “patients with adverse event” read 0% (measured: Dyspnea; AML; oral, 100 mg, intermittent dosing).
Under “subjects with drug-related orthostatic hypotension”, `C[C@]1(CO)Cc2ncn(-c3ccc(C#N)c(Cl)c3)c2C(=O)O1` is recorded as 0% (human, Chinese; 60 mg single dose).
`CC[C@H](C)[C@H](NC(=O)[C@H](Cc1ccccc1)NC(=O)[C@H](CCC(=O)O)NC(=O)[C@H](CCCNC(=N)N)NC(=O)[C@H](C)NC(=O)[C@H](C)NC(=O)[C@H](CCC(N)=O)NC(=O)[C@H](CCC(=O)O)NC(=O)[C@H](CCC(=O)O)NC(=O)[C@H](CC(C)C)NC(=O)[C@H](Cc1ccc(O)cc1)NC(=O)[C@H](CO)NC(=O)[C@H](CO)NC(=O)[C@@H](NC(=O)[C@H](CC(=O)O)NC(=O)[C@H](CO)NC(=O)[C@@H](NC(=O)[C@H](Cc1ccccc1)NC(=O)[C@@H](NC(=O)CNC(=O)[C@H](CCC(=O)O)NC(=O)[C@H](C)NC(=O)CCc1cnc[nH]1)[C@@H](C)O)[C@@H](C)O)C(C)C)C(=O)N[C@@H](C)C(=O)N[C@@H](Cc1c[nH]c2ccccc12)C(=O)N[C@@H](CC(C)C)C(=O)N[C@H](C(=O)N[C@@H](CCCNC(=N)N)C(=O)NCC(=O)N[C@@H](CCCNC(=N)N)C(=O)N[C@@H](CCCCNC(=O)COCCOCCNC(=O)COCCOCCNC(=O)CC[C@H](NC(=O)CCCCCCCCCCCCCCCCC(=O)O)C(=O)O)C(=O)NCC(=O)NCC(=O)N[C@@H](CO)C(=O)N[C@@H](CCCCNC(=O)[C@H](CCCCNc1c(NCCCCCN(O)C(=O)CCC(=O)NCCCCCN(O)C(=O)CCC(=O)NCCCCCN(O)C(C)=O)c(=O)c1=O)Nc1c(NCCCCCN(O)C(=O)CCC(=O)NCCCCCN(O)C(=O)CCC(=O)NCCCCCN(O)C(C)=O)c(=O)c1=O)C(=O)O)C(C)C` [zirconium-89 labelled] has a tissue uptake of 0.225 %ID/g (ex vivo gamma counting; male Sprague-Dawley rats, intestine; intravenous, 1 nmol, 24 h).
`COc1ccc(-c2c(-c3ccc(C#N)c(F)c3)nc(N3CCC(N)CC3)n(C)c2=O)cc1F` — result for “treatment-related adverse event incidence”: 0% (measured: Nausea; neuroendocrine neoplasm patients; oral, 60 mg, grade 3 to 4, dose expansion).
For `Cn1c(-c2ccc(C(N)=O)cc2F)nnc1C(C)(C)Oc1c(F)cc(Cl)cc1F`, “nervous system disorder TEAE” read 0% (human; oral, 3 mg, single ascending dose).
Under “blood cell fraction”, `O=S(=O)(Nc1ccccc1)c1ccc(NC(=S)Nc2ccccc2)cc1` is recorded as 71.3% (measured: LY%; female mouse, blood; oral, 80 mg/kg daily, 14 days).
